# Literature values, collected from citations in different studies.
# Protein sequences, listed by entry. Tags and fused reporters are not part of them. Residues count along the entry.
# UniProt P19256, 29-250 limits assumed: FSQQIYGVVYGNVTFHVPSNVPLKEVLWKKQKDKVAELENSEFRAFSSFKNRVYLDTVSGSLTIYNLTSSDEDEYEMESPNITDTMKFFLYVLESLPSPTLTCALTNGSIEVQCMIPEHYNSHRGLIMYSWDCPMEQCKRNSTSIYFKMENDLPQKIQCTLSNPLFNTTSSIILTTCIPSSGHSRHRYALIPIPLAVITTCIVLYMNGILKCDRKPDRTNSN
# UniProt P29476, whole entry: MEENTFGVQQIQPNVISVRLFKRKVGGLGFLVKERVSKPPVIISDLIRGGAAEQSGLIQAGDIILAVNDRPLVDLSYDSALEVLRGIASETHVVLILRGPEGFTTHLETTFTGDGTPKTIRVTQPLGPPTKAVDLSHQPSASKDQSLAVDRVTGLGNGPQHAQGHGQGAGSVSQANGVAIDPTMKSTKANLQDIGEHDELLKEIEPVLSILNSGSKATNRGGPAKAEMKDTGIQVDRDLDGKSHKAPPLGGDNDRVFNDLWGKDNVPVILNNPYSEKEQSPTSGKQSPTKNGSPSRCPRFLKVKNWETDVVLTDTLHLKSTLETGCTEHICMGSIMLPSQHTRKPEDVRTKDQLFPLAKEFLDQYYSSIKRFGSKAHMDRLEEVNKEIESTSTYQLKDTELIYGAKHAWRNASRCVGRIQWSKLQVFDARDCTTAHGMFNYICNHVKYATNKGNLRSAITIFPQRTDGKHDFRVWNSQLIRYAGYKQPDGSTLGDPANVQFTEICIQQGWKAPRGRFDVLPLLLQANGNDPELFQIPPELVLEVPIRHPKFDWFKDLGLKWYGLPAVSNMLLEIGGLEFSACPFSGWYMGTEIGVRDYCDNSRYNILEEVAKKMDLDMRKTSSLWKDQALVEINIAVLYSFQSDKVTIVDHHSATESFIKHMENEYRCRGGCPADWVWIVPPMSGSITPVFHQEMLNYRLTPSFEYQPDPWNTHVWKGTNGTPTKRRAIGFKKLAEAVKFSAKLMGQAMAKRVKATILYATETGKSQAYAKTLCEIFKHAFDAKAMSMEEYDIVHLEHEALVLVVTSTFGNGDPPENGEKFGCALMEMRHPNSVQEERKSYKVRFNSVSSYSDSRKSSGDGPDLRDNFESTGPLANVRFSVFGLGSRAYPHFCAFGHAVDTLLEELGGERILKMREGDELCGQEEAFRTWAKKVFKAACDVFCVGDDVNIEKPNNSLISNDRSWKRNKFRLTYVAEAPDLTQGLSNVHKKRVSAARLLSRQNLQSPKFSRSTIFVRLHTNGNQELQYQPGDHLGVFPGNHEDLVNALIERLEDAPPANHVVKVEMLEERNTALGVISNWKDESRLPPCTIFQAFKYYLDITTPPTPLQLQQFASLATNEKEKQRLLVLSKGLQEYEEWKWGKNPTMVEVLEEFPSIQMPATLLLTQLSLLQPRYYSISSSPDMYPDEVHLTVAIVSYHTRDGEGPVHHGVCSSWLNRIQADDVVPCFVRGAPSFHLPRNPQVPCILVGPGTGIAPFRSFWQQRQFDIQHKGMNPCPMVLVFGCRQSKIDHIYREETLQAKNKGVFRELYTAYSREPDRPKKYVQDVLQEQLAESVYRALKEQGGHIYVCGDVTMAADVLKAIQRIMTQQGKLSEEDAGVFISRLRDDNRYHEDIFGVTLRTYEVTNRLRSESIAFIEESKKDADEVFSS
# UniProt P06729, 25-351 partner limits assumed: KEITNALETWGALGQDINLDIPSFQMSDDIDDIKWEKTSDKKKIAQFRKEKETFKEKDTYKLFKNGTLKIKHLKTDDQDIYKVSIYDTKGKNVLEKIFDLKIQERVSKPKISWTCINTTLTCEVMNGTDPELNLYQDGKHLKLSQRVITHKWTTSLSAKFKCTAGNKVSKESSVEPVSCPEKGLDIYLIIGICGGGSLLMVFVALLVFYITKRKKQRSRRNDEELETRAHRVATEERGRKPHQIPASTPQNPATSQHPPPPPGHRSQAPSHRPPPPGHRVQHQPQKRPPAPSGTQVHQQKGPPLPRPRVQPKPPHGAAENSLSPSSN
# Compare with care: the assays were run in different laboratories. ± marks the error that the study gave.
Compound,target or system,test,test system,measurement,value
O=C(CC[C@H](Cc1ccc(C(=O)O)cc1)C(=O)O)NO,glutamate carboxypeptidase II,"enzyme activity, inhibitor, radioenzymatic or HPLC",,IC50,20 nM
C[C@@H]1NC(=O)[C@H](CCCCN)NC(=O)[C@@H]2CSSC[C@H](NC(=O)[C@H](CO)NC(=O)[C@@H]3CCCN3C(=O)[C@@H]3CCCN3C(=O)[C@H](C)NC(=O)[C@H](CO)NC1=O)C(=O)N[C@@H](Cc1ccc(O)cc1)C(=O)N[C@@H](CC(=O)O)C(=O)NCC(=O)N[C@@H](CC(=O)O)C(=O)N[C@@H](CC(=O)O)C(=O)N2,"Lymphocyte function-associated antigen 3, with CD2 (CD58, Homo sapiens, UniProt P19256)","cell adhesion, inhibitor",Jurkat on HFLS-RA,IC50,51 ± 25 nM
O=C(Nc1ccc(-c2nc3ccccc3s2)cc1)C1CCN(S(=O)(=O)c2ccccc2Cl)CC1,,,mouse liver microsomes,half-life,11.3 min
O=C(/C=C/c1nc2ccccc2[nH]1)c1c(-c2ccccc2)c2cc(Cl)ccc2[nH]c1=O,,tumour growth inhibition,mouse melanoma xenograft,lowest effective dose,0.5 mg/kg
Cc1cc(N)nc(CCc2cccc(C(O)Cc3cc(C)cc(N)n3)c2)c1 (centres unmarked),"Nos1 (Rattus norvegicus, UniProt P29476)",,,Ki,25 nM
C/C(=N\Nc1nc2ccccc2n1C)c1ccccn1,MCF7,,,IC50,22 nM
COc1cc(N2CCC(N3CCN(C)CC3)CC2)ccc1Nc1ncc(Cl)c(Nc2ccccc2NS(C)(=O)=O)n1,Ba/F3 EGFR L858R/T790M/C797S,"cell growth, inhibitor",,IC50,202 nM
C=CC(=O)Nc1cc(-c2nn(C3CCC(N4CCN(C(C)=O)CC4)CC3)c3ncnc(N)c23)ccc1Oc1ccccc1 (centres unmarked),HER3-dependent cancer cell lines,cell growth,,EC50,> 10000 nM

# A few entries again:
Compound,target or system,test,test system,measurement,value
C[C@@H]1NC(=O)[C@H](CCCCN)NC(=O)[C@@H]2CSSC[C@H](NC(=O)[C@H](CO)NC(=O)[C@@H]3CCCN3C(=O)[C@@H]3CCCN3C(=O)[C@H](C)NC(=O)[C@H](CO)NC1=O)C(=O)N[C@@H](Cc1ccc(O)cc1)C(=O)N[C@@H](CC(=O)O)C(=O)NCC(=O)N[C@@H](CC(=O)O)C(=O)N[C@@H](CC(=O)O)C(=O)N2,"Lymphocyte function-associated antigen 3, with CD2 (CD58, Homo sapiens, UniProt P19256)","cell adhesion, inhibitor",Jurkat on HFLS-RA,IC50,51 ± 25 nM
